# Measured values from different studies.
# Lines come from different studies, so protocols differ. Several values in a cell are separate wells, animals, samples, runs or records. Numbers after ± are the reported error.
# Organism: HIV-1
SMILES,test,test system,setting,IC50
C=C(C)[C@@H]1CC[C@]2(C(=O)OCCOCCOCCOCCO)CC[C@]3(C)[C@H](CC[C@@H]4[C@@]5(C)CC[C@H](O)C(C)(C)[C@@H]5CC[C@]43C)[C@@H]12,"viral replication, measured: p24","MT4, NL4-3",96 h,> 10000 nM
COc1ccccc1NC(=O)c1ccccc1OCc1ccc(C#N)cc1,"viral replication, measured: reverse transcriptase activity","MT-4, LAI",7 d,22800 nM
C=C(C)[C@@H]1CC[C@]2(C(=O)OCCCc3ccccc3)CC[C@]3(C)[C@H](CC[C@@H]4[C@@]5(C)CC[C@H](O)C(C)(C)[C@@H]5CC[C@]43C)[C@@H]12,"viral replication, measured: p24","MT4, NL4-3",96 h,> 10000 nM
CC(C)C[C@H](NC(=O)[C@@H](NC(=O)[C@@H]1CCCN1C(=O)[C@@H](NC(=O)[C@H](CO)NC(=O)[C@@H](NC(=O)[C@H](CCC(N)=O)NC(=O)[C@@H]1CCCN1C(=O)[C@@H](NC(=O)[C@H](CCCCN)NC(=O)[C@H](CCCCN)NC(=O)[C@@H](NC(=O)[C@H](Cc1ccc(O)cc1)NC(=O)[C@H](CCCNC(=N)N)NC(=O)[C@@H](NC(=O)[C@@H](N)CC(C)C)C(C)C)[C@@H](C)O)C(C)C)C(C)C)[C@@H](C)O)[C@@H](C)O)C(=O)O,"viral replication, inhibitor, β-galactosidase reporter","TZM-bl, NL4-3, CXCR4-tropic",3 days,5920 ± 2490 nM
C=C(C)[C@@H]1CC[C@]2(C(=O)OCCCCCCCC)CC[C@]3(C)[C@H](CC[C@@H]4[C@@]5(C)CC[C@H](O)C(C)(C)[C@@H]5CC[C@]43C)[C@@H]12,"viral replication, measured: p24","MT4, NL4-3",96 h,> 10000 nM
O=S(=O)([O-])[O-].O=S(=O)([O-])[O-].[O]=[V+2].[O]=[V+2].c1cc(CN2CCCNCCNCCCNCC2)ccc1CN1CCCNCCNCCCNCC1,viral cytopathic effect,"MT4 cells, IIIB",,1150 nM and 1570 nM
COc1ccc2c(c1)OCCCCCCCN(C[C@@H](O)[C@H](Cc1ccccc1)NC(=O)O[C@H]1CO[C@H]3OCC[C@H]31)S2(=O)=O,"viral replication, MTT","MT-2 cells, LAI",,23 nM
O=c1cc(-c2ccc(O)c(O)c2)oc2cc(O)cc(O)c12,viral replication,"TZM-bl, NL4-3, CXCR4-tropic",48 h,1490 nM
C=C(C)[C@@H]1CC[C@]2(C(=O)OCOC)CC[C@]3(C)[C@H](CC[C@@H]4[C@@]5(C)CC[C@H](O)C(C)(C)[C@@H]5CC[C@]43C)[C@@H]12,"viral replication, measured: p24","MT4, NL4-3",96 h,> 10000 nM
CN(C)CCCn1c(=O)c2cc(Br)c3c(=O)n(CCCN(C)C)c(=O)c4c5[nH]c6ccccc6[nH]c5c(c1=O)c2c34,"viral replication, LTR luciferase reporter","TZM-bl, NL4-3",48 h,< 25 nM
CC[C@H](C)[C@H](N)C(=O)N[C@@H](CC(C)C)C(=O)N[C@@H](CCCNC(=N)N)C(=O)N[C@@H](Cc1c[nH]c2ccccc12)C(=O)N[C@@H](CO)C(=O)N[C@@H](CCCNC(=N)N)C(=O)N[C@@H](CCCCN)C(=O)N[C@@H](CCSC)C(=O)N1CCC[C@H]1C(=O)N[C@@H](CS)C(=O)N[C@@H](CCSC)C(=O)N[C@@H](CO)C(=O)O,"viral replication, inhibitor, β-galactosidase reporter","TZM-bl, NL4-3, CXCR4-tropic",3 days,121 ± 23 nM
C=C(C)[C@@H]1CC[C@]2(C(=O)N3CCC(CCCC(=O)NCCN4CCOCC4)CC3)CC[C@]3(C)[C@H](CC[C@@H]4[C@@]5(C)CC[C@H](O)C(C)(C)[C@@H]5CC[C@]43C)[C@@H]12,"viral replication, measured: p24","MT4, NL4-3",96 h,> 10000 nM
c1nc2c(NCC3CCC(CNCCCNC4CCCCC4)CC3)nc(N3CCNCC3)nc2[nH]1 (stereo not drawn),"viral replication, inhibitor","TZM-bl, IIIB",,2.3 nM
CN(C)CCCn1c(=O)c2ccc3c(=O)n(CCCN(C)C)c(=O)c4c5[nH]c6ccccc6[nH]c5c(c1=O)c2c34,"viral replication, LTR luciferase reporter","TZM-bl, BaL",48 h,< 40 nM
COc1ccc2c(c1)OCCCC/C=C\CN(C[C@@H](O)[C@H](Cc1ccccc1)NC(=O)O[C@H]1CO[C@H]3OCC[C@H]31)S2(=O)=O,"viral replication, MTT","MT-2 cells, LAI",,14 nM
